# Results gathered from unrelated publications.
# Parts stem from different laboratories: compare values within a part only. Substitutions count along the parent as printed.

# Sample 1 — technique: RNA Bind-n-Seq; molecule type: RNA; sample: in vitro; concentration: not given; notes: RNA with constant flanks, ends assumed; reference: input RNA pool; reading: higher = stronger binding
# Target: RING finger protein unkempt homolog, zinc fingers 1-6, GST-SBP tag (UNK, Homo sapiens, UniProt Q9C0B0, residues 30-357)
# Target sequence (chain): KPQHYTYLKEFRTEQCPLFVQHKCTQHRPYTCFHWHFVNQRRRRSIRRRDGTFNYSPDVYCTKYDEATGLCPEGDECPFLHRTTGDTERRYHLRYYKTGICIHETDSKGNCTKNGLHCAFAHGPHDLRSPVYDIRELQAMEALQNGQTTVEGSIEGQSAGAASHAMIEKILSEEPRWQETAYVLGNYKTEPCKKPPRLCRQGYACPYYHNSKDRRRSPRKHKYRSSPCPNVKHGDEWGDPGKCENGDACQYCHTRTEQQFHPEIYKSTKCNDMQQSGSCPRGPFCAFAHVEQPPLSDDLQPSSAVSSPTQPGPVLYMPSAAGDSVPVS
Strand,bound/input enrichment [ratio]
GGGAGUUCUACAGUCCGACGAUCAAAAAAAUGACUCAAGCCGUGUAUUUUUUAUAUUUUGAUAUACUCACUUGUGAAUUAAAGAACCGGACUAUCACUGAUAAAGUAUCAAAAUAGUAAGAGUGGCAACAUUUUGAAAAUAUUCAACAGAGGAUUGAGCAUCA,0.533
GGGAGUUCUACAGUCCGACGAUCGUGUGAGCCUGCGCAGGACAGUUUCAGGUGGUUUUAAAGAACACGUGGAAAUCCCUUGAAUUCCGGACCUGGUUAACCAGAAAGAUAAGACUGUUCUUAACGACCUAGAUGAUUCUGUUCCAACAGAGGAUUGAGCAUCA,0.292
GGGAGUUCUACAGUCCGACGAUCAAGACAAAACUGGACACUCUAGCUACUGGUCAUCUUUUCCAGGAAGUGAGAUGCAUGAAACCCGUGCAGCAUCCUAACAUCGUCCGCCUUUAUGAAGUUAUUGACACCCAGACCAAACUACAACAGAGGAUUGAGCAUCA,0.162
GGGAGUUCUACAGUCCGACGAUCUCAUUUAUUAGAUACAAUAGCCAAAGAAUAAAGUAAAAACUCCUUUUUACCUUGCUGCCCAACCGGAAUCAGAUGACUUAAAUACUAGGCCUUACUAGGGUCUCUUGGCUUUGGAGUUUUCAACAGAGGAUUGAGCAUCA,13.6
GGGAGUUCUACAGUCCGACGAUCGUCACAAGACCAAUAUUUGGUAUACUGGGCACAAUCCAUCUGGUGGCAGGUAAUUAUCUUACCGUCAUUACCAAAAAGAUAAAAGUAGGUGAAUUUUUCAGUCAUGUAGUCUGGAAAGCACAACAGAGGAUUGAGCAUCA,0.98
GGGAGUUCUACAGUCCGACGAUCACGCGGAACAUGGCGCGUUCCUAGAAGCCGUUUUCGGCAUCAGUAGGCGGCAGCGUGUGGACCCGGAGCGUGGGGGACGAGGAAGCAACCAACGCCGCUUCGUGUGGACAAGUGGAAAGGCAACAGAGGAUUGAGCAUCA,0.198
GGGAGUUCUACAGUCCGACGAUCAUGAUUUAUGAGAUCAUUGAUAAUUCUCAAGGAUUUUAUGUAUGCCCAGUGGAGCGCCAGAACCGAAGCAGGAUGAACAUCCCAUUUCGCAUUGGCAACGCCAAAGGAGACGAAGCUUUGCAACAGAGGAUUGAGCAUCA,0.0994
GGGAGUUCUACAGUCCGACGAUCCCGUUUCUAGUAUAUUCCUGUAAAUGUCAGUUACUGAAAAUGAGUCCAAUGUAAGCCGUUCCGCUUGUUUAUUGCAAUGCUGGCCUCAACACAACAGAAUAAAAAUGGUAGAAAGUACUCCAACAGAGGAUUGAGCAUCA,0.358

# Sample 2 — target: CCNF, cyclin fold, Cln2 fusion (human); technique: yeast growth competition, sequencing; sample: yeast; notes: strong parent motif; reference: not given; reading: higher = stronger binding
# Starting sequence: BRCA2 docking peptide (human); PSIKRNLLNEFDR
Variant,normalised enrichment score
PQIKRNLLNEFDR [S2Q],2.85
PSIKRNLLNLFDR [E10L],2.48
PSIKRNRLNEFDR [L7R],0.888
PSIKHNLLNEFDR [R5H],0.0284
PSIKKNLLNEFDR [R5K],1.29
PVIKRNLLNEFDR [S2V],1.77
PSIKRNLLNEFDK [R13K],2.35
LSIKRNLLNEFDR [P1L],4.26
PSIKRNLLNEFSR [D12S],2.43
PSIKRNLLNCFDR [E10C],2.37
PSIKRNLLGEFDR [N9G],3.4
PSIKRVLLNEFDR [N6V],1.21
PSIKRNHLNEFDR [L7H],0.292
PSIKRNLLNEFDF [R13F],3.06
PSIKRNLLDEFDR [N9D],3.68
PSILRNLLNEFDR [K4L],1.76
PSMKRNLLNEFDR [I3M],0.403

# Sample 3 — technique: protein-binding microarray; molecule type: double-stranded DNA, one strand shown; sample: in vitro; concentration: 2200 nM top; notes: 60-bp whole probe; added: salmon DNA 0.4 mg/ml; reference: random background probes; reading: higher = stronger binding; constant ends, left off below: GCCTAGCAC … GTCTTGATTCGCTTGACGCTGCTG
# Target: Interferon regulatory factor 7, full length, phosphomimetic (IRF7, Homo sapiens, UniProt Q92985, residues 1-503, S471D/S472D/S475D/S476D/S477D/S483D/S484D/S487D)
# Residues (chain): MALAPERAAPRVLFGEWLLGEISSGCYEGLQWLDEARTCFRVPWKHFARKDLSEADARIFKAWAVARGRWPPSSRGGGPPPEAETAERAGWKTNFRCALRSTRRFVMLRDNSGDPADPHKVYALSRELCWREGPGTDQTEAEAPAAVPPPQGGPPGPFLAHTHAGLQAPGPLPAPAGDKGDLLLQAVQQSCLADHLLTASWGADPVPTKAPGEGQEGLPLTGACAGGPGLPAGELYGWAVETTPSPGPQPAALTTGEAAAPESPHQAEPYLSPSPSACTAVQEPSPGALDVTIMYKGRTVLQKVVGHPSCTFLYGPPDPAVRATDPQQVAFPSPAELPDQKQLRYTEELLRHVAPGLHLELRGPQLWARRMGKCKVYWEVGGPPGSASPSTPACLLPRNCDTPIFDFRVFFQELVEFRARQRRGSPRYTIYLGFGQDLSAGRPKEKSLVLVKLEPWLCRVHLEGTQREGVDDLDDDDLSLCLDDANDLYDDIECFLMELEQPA
Strand,fitted relative affinity [z-score]
GACGGGATCGGTTTCGGGACGTGCTAG,2.93
TTAAAACTGAGTTTCGATTAGTGCTAG,3.59
GACGGTTTCGGGTATCGGGTCGTGCTA,6.53
TTAGATATCGCGTTTCGATTAGTGCTA,2.06
TTAGGTTCCCTTTTCTTTTAGTGCTAG,2.68
GACGGTCTCGGTCTCGGGAAGTGCTAG,-0.0437
CACGGTCTCCTTTTCCTGACGTGCTAG,1.48
TTAGGTCTCGGAATCGGTTAGTGCTAG,0.634
TTAGAACTGGGGTCTGGATTAGTGCTA,-0.189
TTAGATTTAAGTTCCGATTAGTGCTAG,0.277
CCAGGTTGGGAGGGGTAGGGGTGCTAG,0.567
TTAGCTATCGGACTGGGTTAGTGCTAG,0.14
TTAGGTTTCCTACAGCTTTAGTGCTAG,0.575
GTGTGTCTGATTATTTACATGTGCTAG,0.976
TCATTTTTTAGCTTCTCACTGTGCTAG,1.91
GACGATATCAGTTTGGAGACGTGCTAG,0.289
TGTGAAACCTTCAGGCACGTGTGCTAG,-0.361
GACGGACTGGATACTGGGGACGTGCTA,-0.883
TTAGATTTCGGGACGGGATTAGTGCTA,1.37

# Mixed results
Substance,target,test,test system,setting,how to read,endpoint,value
"PhoQ, residues 284 288 289 292 302 303 GLASVI","PhoP, residues 12 14 15 18 19 TPWLV (Escherichia coli, UniProt P23836)","Sort-seq, item: YFP reporter",E. coli,"PhoQ-PhoP variant library, added: 10 µM Mg2+","reference: high Mg2+ state, higher = stronger signaling",fold induction,12.2

# Excerpt of the above (sample 3):
Strand,fitted relative affinity [z-score]
CACGGTCTCCTTTTCCTGACGTGCTAG,1.48
GACGGGATCGGTTTCGGGACGTGCTAG,2.93
TTAGAACTGGGGTCTGGATTAGTGCTA,-0.189
TTAGATTTAAGTTCCGATTAGTGCTAG,0.277
